Measured values from different studies.
Lines come from different studies, so protocols differ.
T1: PSMG1/PSMG2 heterodimer (Homo sapiens); chain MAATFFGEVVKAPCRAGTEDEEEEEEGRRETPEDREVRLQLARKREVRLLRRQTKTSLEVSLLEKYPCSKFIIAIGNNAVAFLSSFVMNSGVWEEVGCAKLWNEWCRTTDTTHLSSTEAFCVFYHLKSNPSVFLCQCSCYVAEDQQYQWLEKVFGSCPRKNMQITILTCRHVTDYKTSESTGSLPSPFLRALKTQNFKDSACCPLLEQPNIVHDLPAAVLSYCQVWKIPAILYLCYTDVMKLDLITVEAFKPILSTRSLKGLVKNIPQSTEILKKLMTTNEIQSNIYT; chain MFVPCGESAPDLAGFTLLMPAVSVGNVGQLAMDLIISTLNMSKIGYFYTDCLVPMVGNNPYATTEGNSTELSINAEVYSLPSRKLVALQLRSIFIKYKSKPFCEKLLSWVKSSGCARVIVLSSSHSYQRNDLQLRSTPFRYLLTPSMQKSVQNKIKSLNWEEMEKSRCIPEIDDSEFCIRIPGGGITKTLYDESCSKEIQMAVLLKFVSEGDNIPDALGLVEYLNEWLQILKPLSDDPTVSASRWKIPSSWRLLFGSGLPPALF
B1: exbD 43-141 (Escherichia coli, UniProt P0ABV2); sequence looked up; chain VDVKVNLPASTSTPQPRPEKPVYLSVKADNSMFIGNDPVTDETMITALNALTEGKKDTTIFFRADKTVDYETLMKVMDTLHQAGYLKIGLVGEETAKAK
B2: PUM1 800-1186 (Homo sapiens, UniProt Q14671); chain SASSLFSPSSTLFSSSRLRYGMSDVMPSGRSRLLEDFRNNRYPNLQLREIAGHIMEFSQDQHGSRFIQLKLERATPAERQLVFNEILQAAYQLMVDVFGNYVIQKFFEFGSLEQKLALAERIRGHVLSLALQMYGCRVIQKALEFIPSDQQNEMVRELDGHVLKCVKDQNGNHVVQKCIECVQPQSLQFIIDAFKGQVFALSTHPYGCRVIQRILEHCLPDQTLPILEELHQHTEQLVQDQYGNYVIQHVLEHGRPEDKSKIVAEIRGNVLVLSQHKFASNVVEKCVTHASRTERAVLIDEVCTMNDGPHSALYTMMKDQYANYVVQKMIDVAEPGQRKIVMHKIRPHIATLRKYTYGKHILAKLEKYYMKNGVDLGPICGPPNGII
B3: REC107 41-224 (Saccharomyces cerevisiae, UniProt P21651); chain KVANAGALEESDKQILEWAGKLELESMELRENSDKLIKVLNENSKTLCKSLNKFNQLLEQDAATNGNVKTLIKDLASQIENQLDKVSTAMLSKGDEKKTKSDSSYRQVLVEEISRYNSKITRHVTNKQHETEKSMRCTQEMLFNVGSQLEDVHKVLLSLSKDMHSLQTRQTALEMAFREKADHA
B4: POL31 (Saccharomyces cerevisiae, UniProt P46957); sequence looked up; chain MDALLTKFNEDRSLQDENLSQPRTRVRIVDDNLYNKSNPFQLCYKKRDYGSQYYHIYQYRLKTFRERVLKECDKRWDAGFTLNGQLVLKKDKVLDIQGNQPCWCVGSIYCEMKYKPNVLDEVINDTYGAPDLTKSYTDKEGGSDEIMLEDESGRVLLVGDFIRSTPFITGVVVGILGMEAEAGTFQVLDICYPTPLPQNPFPAPIATCPTRGKIALVSGLNLNNTSPDRLLRLEILREFLMGRINNKIDDISLIGRLLICGNSVDFDIKSVNKDELMISLTEFSKFLHNILPSISVDIMPGTNDPSDKSLPQQPFHKSLFDKSLESYFNGSNKEILNLVTNPYEFSYNGVDVLAVSGKNINDICKYVIPSNDNGESENKVEEGESNDFKDDIEHRLDLMECTMKWQNIAPTAPDTLWCYPYTDKDPFVLDKWPHVYIVANQPYFGTRVVEIGGKNIKIISVPEFSSTGMIILLDLETLEAETVKIDI
B5: CCDC32 66-130 Y77I (Mus musculus, UniProt Q8BS39); chain KPWAPLHDSEVILASLEKKLRRIKGLNEEVTSKDMLRTLAQAKKECWDRFLQEKLASEFFVDGLD
B6: EIF3J/GST 103-258 (Homo sapiens); Alexa Fluor 546 label; sequence looked up; chain EEPKVLTPEEQLADKLRLKKLQEESDLELAKETFGVNNAVYGIDAMNPSSRDDFTEFGKLLKDKITQYEKSLYYASFLEVLVRDVCISLEIDDLKKITNSLTVLCSEKQKQEKQSKAKKKKKGVVPGGGLKATMKDDLADYGGYDGGYVQDYEDFM
B7: PSMA5 (Homo sapiens, UniProt P28066); chain MFLTRSEYDRGVNTFSPEGRLFQVEYAIEAIKLGSTAIGIQTSEGVCLAVEKRITSPLMEPSSIEKIVEIDAHIGCAMSGLIADAKTLIDKARVETQNHWFTYNETMTVESVTQAVSNLALQFGEEDADPGAMSRPFGVALLFGGVDEKGPQLFHMDPSGTFVQCDARAIGSASEGAQSSLQEVYHKSMTLKEAIKSSLIILKQVMEEKLNATNIELATVQPGQNFHMFTKEELEEVIKDI
B8: SF3B1 454-1304 K700E (Homo sapiens, UniProt O75533); chain KSVNDQPSGNLPFLKPDDIQYFDKLLVDVDESTLSPEEQKERKIMKLLLKIKNGTPPMRKAALRQITDKAREFGAGPLFNQILPLLMSPTLEDQERHLLVKVIDRILYKLDDLVRPYVHKILVVIEPLLIDEDYYARVEGREIISNLAKAAGLATMISTMRPDIDNMDEYVRNTTARAFAVVASALGIPSLLPFLKAVCKSKKSWQARHTGIKIVQQIAILMGCAILPHLRSLVEIIEHGLVDEQQEVRTISALAIAALAEAATPYGIESFDSVLKPLWKGIRQHRGKGLAAFLKAIGYLIPLMDAEYANYYTREVMLILIREFQSPDEEMKKIVLKVVKQCCGTDGVEANYIKTEILPPFFKHFWQHRMALDRRNYRQLVDTTVELANKVGAAEIISRIVDDLKDEAEQYRKMVMETIEKIMGNLGAADIDHKLEEQLIDGILYAFQEQTTEDSVMLNGFGTVVNALGKRVKPYLPQICGTVLWRLNNKSAKVRQQAADLISRTAVVMKTCQEEKLMGHLGVVLYEYLGEEYPEVLGSILGALKAIVNVIGMHKMTPPIKDLLPRLTPILKNRHEKVQENCIDLVGRIADRGAEYVSAREWMRICFELLELLKAHKKAIRRATVNTFGYIAKAIGPHDVLATLLNNLKVQERQNRVCTTVAIAIVAETCSPFTVLPALMNEYRVPELNVQNGVLKSLSFLFEYIGEMGKDYIYAVTPLLEDALMDRDLVHRQTASAVVQHMSLGVYGFGCEDSLNHLLNYVWPNVFETSPHVIQAVMGALEGLRVAIGPCRMLQYCLQGLFHPARKVRDVYWKIYNSIYIGSQDALIAHYPRIYNDDKNTYIRYELDYIL
B9: HCK 78-138 (Homo sapiens, UniProt P08631); chain SEDIIVVALYDYEAIHHEDLSFQKGDQMVVLEESGEWWKARSLATRKEGYIPSNYVARVDS
B10: ND2 1-469 (Yarrowia lipolytica, UniProt Q9B6C8); sequence looked up; chain MLILAIISLITFVSMSKLSDNRAIIRLINIYLILVLVLDSFLYLLFLNNQTYTVMGELLIFNSFTFYIDMLIYFIMIVISSLYGYNLYNNNLYKTLFEPKKELIILFLINILGALLIVHSNDFITLFVAIELQSYSIYLITAIYNSSYKASKASMLYFFMGGILSILIAYSINTYYSVLNSYTLHSLDSLIINTLDLNLILIALSLGLLFKIGIAPLHKWLISIYENTPILITIYISLIPKISILSYLVLSNISINSLVISILAILTLLVGSVGGLLQIKIKRLLAFSGLTNAGYMMLLLLLNNNEFSYLYYITQYSISHLAIFMIIIFSIYYINYINNQYNPIIYVNQLKGLIHDNAYLVLSMAIVVFSFIGIPPLLGFFGKLNILMSILNNGYYFISIVLIVASLISALYYLYLLNVSIQDKNNILINSNETVSSVLSYILSSLIILITFGFIYNSLIIDIFNVYFN
B11: TNPO1; chain VWDRQTKMEYEWKPDEQGLQQILQLLKESQSPDTTIQRTVQQKLEQLNQYPDFNNYLIFVLTKLKSEDEPTRSLSGLILKNNVKAHFQNFPNGVTDFIKSECLNNIGDSSPLIRATVGILITTIASKGELQNWPDLLPKLCSLLDSEDYNTCEGAFGALQKICEDSAEILDSDVLDRPLNIMIPKFLQFFKHSSPKIRSHAVACVNQFIISRTQALMLHIDSFIENLFALAGDEEPEVRKNVCRALVMLLEVRMDRLLPHMHNIVEYMLQRTQDQDENVALEACEFWLTLAEQPICKDVLVRHLPKLIPVLVNGMKYSDIDIILLKGDVEEDETIPDSEQDIRPRFHRSRTVAQQHDEDGIEEEDDDDDEIDDDDTISDWNLRKCSAAALDVLANVYRDELLPHILPLLKELLFHHEWVVKESGILVLGAIAEGCMQGMIPYLPELIPHLIQCLSDKKALVRSITCWTLSRYAHWVVSQPPDTYLKPLMTELLKRILDSNKRVQEAACSAFATLEEEACTELVPYLAYILDTLVFAFSKYQHKNLLILYDAIGTLADSVGHHLNKPEYIQMLMPPLIQKWNMLKDEDKDLFPLLECLSSVATALQSGFLPYCEPVYQRCVNLVQKTLAQAMLNNAQPDQYEAPDKDFMIVALDLLSGLAEGLGGNIEQLVARSNILTLMYQCMQDKMPEVRQSSFALLGDLTKACFQHVKPCIADFMPILGTNLNPEFISVCNNATWAIGEISIQMGIEMQPYIPMVLHQLVEIINRPNTPKTLLENTAITIGRLGYVCPQEVAPMLQQFIRPWCTSLRNIRDNEEKDSAFRGICTMISVNPSGVIQDFIFFCDAVASWINPKDDLRDMFCKILHGFKNQVGDENWRRFSDQFPLPLKERLAAFYGV
B12: PUM1 774-1186 (Homo sapiens, UniProt Q14671); chain LGGLTNGSGRYISAAPGAEAKYRSASSASSLFSPSSTLFSSSRLRYGMSDVMPSGRSRLLEDFRNNRYPNLQLREIAGHIMEFSQDQHGSRFIQLKLERATPAERQLVFNEILQAAYQLMVDVFGNYVIQKFFEFGSLEQKLALAERIRGHVLSLALQMYGCRVIQKALEFIPSDQQNEMVRELDGHVLKCVKDQNGNHVVQKCIECVQPQSLQFIIDAFKGQVFALSTHPYGCRVIQRILEHCLPDQTLPILEELHQHTEQLVQDQYGNYVIQHVLEHGRPEDKSKIVAEIRGNVLVLSQHKFASNVVEKCVTHASRTERAVLIDEVCTMNDGPHSALYTMMKDQYANYVVQKMIDVAEPGQRKIVMHKIRPHIATLRKYTYGKHILAKLEKYYMKNGVDLGPICGPPNGII
B13: POL30 1-258 (Saccharomyces cerevisiae, UniProt P15873); chain MLEAKFEEASLFKRIIDGFKDCVQLVNFQCKEDGIIAQAVDDSRVLLVSLEIGVEAFQEYRCDHPVTLGMDLTSLSKILRCGNNTDTLTLIADNTPDSIILLFEDTKKDRIAEYSLKLMDIDADFLKIEELQYDSTLSLPSSEFSKIVRDLSQLSDSINIMITKETIKFVADGDIGSGSVIIKPFVDMEHPETSIKLEMDQPVDLTFGAKYLLDIIKGSSLSDRVGIRLSSEAPALFQFDLKSGFLQFFLAPKFNDEE
Sequence of UniProt Q9UBQ5 (whole entry, looked up): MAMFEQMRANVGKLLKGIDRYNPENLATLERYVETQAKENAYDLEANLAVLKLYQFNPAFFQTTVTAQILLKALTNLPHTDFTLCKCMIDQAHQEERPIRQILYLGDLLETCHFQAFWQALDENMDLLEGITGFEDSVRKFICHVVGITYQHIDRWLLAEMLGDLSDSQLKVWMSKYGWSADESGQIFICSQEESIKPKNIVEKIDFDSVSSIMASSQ
Sequence of UniProt Q92966 (whole entry, looked up): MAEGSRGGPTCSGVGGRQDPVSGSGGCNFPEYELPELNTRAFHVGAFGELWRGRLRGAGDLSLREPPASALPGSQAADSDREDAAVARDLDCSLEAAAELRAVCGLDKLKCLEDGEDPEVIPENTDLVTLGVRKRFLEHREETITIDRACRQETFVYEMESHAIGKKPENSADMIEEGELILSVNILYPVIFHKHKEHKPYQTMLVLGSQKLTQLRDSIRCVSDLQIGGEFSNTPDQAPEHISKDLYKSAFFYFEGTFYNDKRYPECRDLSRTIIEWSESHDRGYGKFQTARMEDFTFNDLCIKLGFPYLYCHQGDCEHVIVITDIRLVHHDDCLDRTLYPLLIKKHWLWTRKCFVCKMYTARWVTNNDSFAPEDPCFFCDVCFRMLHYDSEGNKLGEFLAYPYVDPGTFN
Sequence of UniProt O14908 (whole entry, looked up): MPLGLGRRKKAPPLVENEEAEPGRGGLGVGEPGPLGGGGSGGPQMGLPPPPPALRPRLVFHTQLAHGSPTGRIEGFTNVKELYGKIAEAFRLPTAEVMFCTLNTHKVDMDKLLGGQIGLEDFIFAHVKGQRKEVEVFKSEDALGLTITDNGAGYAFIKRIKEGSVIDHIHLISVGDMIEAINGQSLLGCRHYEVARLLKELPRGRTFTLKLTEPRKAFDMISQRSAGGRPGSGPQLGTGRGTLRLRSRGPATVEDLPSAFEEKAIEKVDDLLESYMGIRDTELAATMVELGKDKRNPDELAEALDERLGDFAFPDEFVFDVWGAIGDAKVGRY
Sequence of UniProt Q12509 (whole entry, looked up): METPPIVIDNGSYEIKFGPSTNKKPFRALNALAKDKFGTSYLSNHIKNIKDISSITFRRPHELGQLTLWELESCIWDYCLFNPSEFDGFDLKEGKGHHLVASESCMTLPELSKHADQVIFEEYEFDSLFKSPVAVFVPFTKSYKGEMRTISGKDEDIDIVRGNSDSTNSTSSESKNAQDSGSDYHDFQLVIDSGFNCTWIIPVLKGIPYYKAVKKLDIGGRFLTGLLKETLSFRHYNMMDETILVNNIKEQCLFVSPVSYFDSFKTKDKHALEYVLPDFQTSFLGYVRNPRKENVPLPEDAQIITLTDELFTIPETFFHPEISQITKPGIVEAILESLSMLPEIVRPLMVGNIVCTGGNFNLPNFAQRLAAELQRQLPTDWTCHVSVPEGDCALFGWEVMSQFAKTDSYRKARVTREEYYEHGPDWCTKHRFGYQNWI
Sequence of UniProt P15436 (whole entry, looked up): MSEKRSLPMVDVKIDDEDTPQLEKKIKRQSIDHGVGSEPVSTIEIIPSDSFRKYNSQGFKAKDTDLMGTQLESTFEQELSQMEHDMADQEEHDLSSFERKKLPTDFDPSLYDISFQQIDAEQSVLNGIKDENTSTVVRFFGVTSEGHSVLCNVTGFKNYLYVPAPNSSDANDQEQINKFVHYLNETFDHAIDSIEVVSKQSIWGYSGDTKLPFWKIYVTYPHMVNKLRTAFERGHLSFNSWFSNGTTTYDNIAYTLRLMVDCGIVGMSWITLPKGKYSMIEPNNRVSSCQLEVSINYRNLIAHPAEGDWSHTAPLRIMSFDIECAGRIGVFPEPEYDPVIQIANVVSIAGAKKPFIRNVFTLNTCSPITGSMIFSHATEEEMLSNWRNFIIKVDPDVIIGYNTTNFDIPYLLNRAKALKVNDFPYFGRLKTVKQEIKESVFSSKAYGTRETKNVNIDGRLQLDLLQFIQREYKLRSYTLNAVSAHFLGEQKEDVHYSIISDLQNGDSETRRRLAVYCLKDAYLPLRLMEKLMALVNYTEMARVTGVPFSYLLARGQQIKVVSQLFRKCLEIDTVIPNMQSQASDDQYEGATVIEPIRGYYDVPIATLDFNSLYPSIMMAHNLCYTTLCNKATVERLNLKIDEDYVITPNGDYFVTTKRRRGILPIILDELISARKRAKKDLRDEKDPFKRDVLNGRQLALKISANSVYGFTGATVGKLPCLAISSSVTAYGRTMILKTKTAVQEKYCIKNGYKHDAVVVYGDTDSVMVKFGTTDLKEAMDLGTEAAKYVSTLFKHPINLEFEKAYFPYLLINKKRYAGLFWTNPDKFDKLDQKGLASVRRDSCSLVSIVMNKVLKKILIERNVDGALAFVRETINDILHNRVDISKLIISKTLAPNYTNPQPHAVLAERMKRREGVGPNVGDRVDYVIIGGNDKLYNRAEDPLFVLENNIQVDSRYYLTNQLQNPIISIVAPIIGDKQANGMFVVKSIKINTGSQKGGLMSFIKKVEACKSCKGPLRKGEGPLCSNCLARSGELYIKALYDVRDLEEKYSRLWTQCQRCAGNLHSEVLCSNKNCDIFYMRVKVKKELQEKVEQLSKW
Sequence of UniProt P27986 (whole entry, looked up): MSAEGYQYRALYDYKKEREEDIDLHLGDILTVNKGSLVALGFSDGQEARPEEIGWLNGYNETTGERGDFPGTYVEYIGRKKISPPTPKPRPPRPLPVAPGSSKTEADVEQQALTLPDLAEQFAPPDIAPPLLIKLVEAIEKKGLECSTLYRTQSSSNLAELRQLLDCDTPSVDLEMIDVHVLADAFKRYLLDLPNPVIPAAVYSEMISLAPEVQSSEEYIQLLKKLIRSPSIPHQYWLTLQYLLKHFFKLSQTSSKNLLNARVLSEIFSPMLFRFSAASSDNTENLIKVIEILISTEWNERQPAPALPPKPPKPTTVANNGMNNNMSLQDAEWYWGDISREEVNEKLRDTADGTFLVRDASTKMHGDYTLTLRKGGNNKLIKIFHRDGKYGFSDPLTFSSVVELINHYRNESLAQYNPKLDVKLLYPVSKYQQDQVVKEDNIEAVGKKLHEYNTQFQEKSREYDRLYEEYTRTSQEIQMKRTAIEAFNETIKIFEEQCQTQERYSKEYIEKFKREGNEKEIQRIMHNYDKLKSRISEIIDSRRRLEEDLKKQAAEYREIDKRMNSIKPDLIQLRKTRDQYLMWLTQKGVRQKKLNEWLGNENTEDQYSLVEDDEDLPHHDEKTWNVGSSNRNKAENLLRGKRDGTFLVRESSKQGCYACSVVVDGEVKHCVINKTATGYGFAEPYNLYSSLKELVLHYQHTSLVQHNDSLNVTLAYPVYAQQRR
Sequence of UniProt Q5SXM2 (whole entry, looked up): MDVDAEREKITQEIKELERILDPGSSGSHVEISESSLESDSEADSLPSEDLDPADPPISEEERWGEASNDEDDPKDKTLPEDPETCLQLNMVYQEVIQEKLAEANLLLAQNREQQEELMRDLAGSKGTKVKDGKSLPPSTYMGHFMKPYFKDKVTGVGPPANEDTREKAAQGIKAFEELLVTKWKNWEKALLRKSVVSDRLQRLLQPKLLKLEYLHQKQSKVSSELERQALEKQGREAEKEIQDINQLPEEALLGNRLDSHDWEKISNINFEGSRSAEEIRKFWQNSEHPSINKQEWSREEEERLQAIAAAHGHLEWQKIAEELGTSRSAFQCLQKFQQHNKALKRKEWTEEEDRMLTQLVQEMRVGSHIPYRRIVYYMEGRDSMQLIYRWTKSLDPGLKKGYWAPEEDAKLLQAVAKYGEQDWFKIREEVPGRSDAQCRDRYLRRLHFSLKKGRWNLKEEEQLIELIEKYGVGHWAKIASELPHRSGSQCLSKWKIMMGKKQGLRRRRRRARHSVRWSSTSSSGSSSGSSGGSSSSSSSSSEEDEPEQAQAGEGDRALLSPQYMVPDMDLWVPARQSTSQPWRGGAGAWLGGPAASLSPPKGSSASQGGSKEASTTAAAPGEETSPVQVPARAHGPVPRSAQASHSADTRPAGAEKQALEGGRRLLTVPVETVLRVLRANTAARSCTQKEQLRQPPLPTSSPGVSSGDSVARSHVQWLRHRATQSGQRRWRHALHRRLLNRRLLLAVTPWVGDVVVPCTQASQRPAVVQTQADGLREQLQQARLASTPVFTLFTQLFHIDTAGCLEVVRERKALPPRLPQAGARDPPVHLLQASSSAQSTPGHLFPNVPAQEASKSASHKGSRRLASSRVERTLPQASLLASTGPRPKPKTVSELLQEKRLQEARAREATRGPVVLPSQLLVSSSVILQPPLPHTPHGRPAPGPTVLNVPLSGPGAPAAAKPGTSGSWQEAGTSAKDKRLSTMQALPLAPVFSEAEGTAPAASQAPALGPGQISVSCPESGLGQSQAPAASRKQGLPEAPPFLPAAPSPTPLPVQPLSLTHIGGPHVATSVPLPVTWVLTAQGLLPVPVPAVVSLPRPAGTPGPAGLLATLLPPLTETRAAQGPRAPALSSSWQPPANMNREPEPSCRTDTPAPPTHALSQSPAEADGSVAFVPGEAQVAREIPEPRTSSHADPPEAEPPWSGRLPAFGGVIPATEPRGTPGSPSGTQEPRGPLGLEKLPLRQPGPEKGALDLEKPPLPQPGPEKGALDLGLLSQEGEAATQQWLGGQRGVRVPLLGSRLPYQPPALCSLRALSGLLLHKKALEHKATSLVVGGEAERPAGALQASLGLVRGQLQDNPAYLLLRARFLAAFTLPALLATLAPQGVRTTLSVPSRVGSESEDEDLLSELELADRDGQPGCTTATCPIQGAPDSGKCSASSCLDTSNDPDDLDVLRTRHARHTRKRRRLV
Sequence of UniProt P40348 (whole entry, looked up): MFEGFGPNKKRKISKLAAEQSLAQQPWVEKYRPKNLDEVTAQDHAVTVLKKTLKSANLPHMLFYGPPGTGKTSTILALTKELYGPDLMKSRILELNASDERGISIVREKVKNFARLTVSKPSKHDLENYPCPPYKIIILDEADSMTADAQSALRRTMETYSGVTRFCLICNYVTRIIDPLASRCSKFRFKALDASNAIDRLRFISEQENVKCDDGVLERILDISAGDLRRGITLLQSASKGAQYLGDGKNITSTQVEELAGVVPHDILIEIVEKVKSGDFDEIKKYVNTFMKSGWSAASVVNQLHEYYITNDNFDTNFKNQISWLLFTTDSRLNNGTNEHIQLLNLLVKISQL

`B1 (exbD 43-141)` — result for binding: “binds” (tonB 34-239 (Escherichia coli, UniProt P02929); NMR titration).
For `B2 (PUM1 800-1186)`, binding read “binds” (CNOT1/CNOT2/CNOT3 C-terminal NOT module 1833-2361; pull-down).
For `GPTEGSDRSASSLNHTILAGVHSNDHSVV (LPAR1 336-364 (Homo sapiens, UniProt Q92633); sequence looked up)`, binding read “binds” (GIPC1 PDZ1 133-213 (Homo sapiens, UniProt O14908); ELISA).
Under binding, `B3 (REC107 41-224)` is recorded as “binds” (SPP1 (Saccharomyces cerevisiae, UniProt Q03012); SEC-MALS).
For `B4 (POL31)`, binding read “binds” (POL3 (Saccharomyces cerevisiae, UniProt P15436); mass photometry).
Under binding, `SNAPC3 (Homo sapiens, UniProt Q92966)` is recorded as “binds” (SNAPC4 1-505 (Homo sapiens, UniProt Q5SXM2); cryo-EM).
`ARP6 (Saccharomyces cerevisiae, UniProt Q12509)` — result for binding: “binds” (VPS72 (Saccharomyces cerevisiae, UniProt Q03388); cryo-EM).
For `B5 (CCDC32 66-130 Y77I)`, binding read “binds” (AP-2 α/σ2 (Mus musculus); pull-down).
`B6 (EIF3J/GST 103-258)` — result for binding: “binds” (EIF3K (Homo sapiens, UniProt Q9UBQ5); EMSA).
`B7 (PSMA5)` — result for binding: “binds” (T1, PSMG1/PSMG2 heterodimer (Homo sapiens); cryo-EM).
Under binding, `B8 (SF3B1 454-1304 K700E)` is recorded as “binds” (SF3B3 (Homo sapiens, UniProt Q15393); cryo-EM).
`B9 (HCK 78-138)` — result for binding: “binds” (PIK3R1 80-333 (Homo sapiens, UniProt P27986); ITC).
`B10 (ND2 1-469)`: binding “binds” (ND4 1-486 (Yarrowia lipolytica, UniProt Q9B6D6); cryo-EM).
`KKATQASQEY (H2AX residues 134-143 (Homo sapiens); pS139, fluorescein label)` — result for binding: “binds” (MDC1 BRCT 1891-2089 (Homo sapiens, UniProt Q14676); fluorescence polarisation; peptide).
For `B11 (TNPO1)`, binding read “binds” (MIDN fragment L395D (Homo sapiens); pull-down).
For `B12 (PUM1 774-1186)`, binding read “binds” (CNOT1/CNOT2/CNOT3 NOT module 1833-2361; pull-down).
`B13 (POL30 1-258)`: binding “binds” (RFC2 (Saccharomyces cerevisiae, UniProt P40348); cryo-EM).

A few entries again:
`B7 (PSMA5)` — result for binding: “binds” (T1, PSMG1/PSMG2 heterodimer (Homo sapiens); cryo-EM).
